Assay results of several laboratories.
Lines come from different studies, so protocols differ. Numbers after ± are the reported error.
BTK: Tyrosine-protein kinase BTK (BTK, Homo sapiens, UniProt Q06187)
UniProt Q06187, sequence (whole entry, looked up): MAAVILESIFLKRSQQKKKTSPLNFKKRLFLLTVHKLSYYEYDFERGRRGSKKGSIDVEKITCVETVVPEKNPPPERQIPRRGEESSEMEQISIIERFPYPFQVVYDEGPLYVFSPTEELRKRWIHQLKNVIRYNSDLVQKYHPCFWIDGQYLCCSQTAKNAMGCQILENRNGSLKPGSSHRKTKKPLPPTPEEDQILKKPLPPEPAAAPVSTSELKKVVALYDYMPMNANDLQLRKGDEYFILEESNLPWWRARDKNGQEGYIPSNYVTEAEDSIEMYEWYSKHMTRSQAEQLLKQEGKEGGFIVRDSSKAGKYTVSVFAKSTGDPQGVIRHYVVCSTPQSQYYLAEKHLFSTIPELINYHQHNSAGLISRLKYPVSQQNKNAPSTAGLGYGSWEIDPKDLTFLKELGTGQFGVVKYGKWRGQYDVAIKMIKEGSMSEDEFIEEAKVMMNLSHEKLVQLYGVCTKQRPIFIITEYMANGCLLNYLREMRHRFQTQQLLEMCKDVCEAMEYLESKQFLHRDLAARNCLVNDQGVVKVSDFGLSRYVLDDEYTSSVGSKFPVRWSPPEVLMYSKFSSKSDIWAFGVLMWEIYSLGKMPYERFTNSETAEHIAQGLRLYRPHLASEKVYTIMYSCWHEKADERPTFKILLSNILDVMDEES
UCHL1: Ubiquitin carboxyl-terminal hydrolase isozyme L1 (UCHL1, Homo sapiens, UniProt P09936)
UniProt P09936, sequence (whole entry, looked up): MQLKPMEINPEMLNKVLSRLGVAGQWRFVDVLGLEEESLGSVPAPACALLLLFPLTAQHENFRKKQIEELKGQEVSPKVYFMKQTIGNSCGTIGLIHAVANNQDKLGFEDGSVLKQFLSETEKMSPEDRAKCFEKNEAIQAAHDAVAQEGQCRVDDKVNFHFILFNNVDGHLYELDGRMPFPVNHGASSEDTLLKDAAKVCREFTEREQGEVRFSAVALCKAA

`Cc1cc(Nc2cc(N3CCN(C)CC3)nc(Sc3ccc(NC(=O)C4CC4)cc3)n2)[nH]n1` gave a remaining activity of 91% (BTK; kinase activity, KinaseProfiler; 0.03 µM, species human; relative to: control).
`Cl.O=C(CCl)NC1(c2nc(-c3ccccc3)c[nH]2)CCCC1` gave a labelling of 27.5% (UCHL1; covalent, intact protein LC-MS; 12.5 µM).
For `O=C(NC1CCC1)c1ccc2nc(-c3cccc(NS(=O)(=O)NCCN4CCCCC4)c3)cn2c1`, the remaining activity was 78% (BTK; enzyme activity; 10 µM).
`O=C(Cc1ccc(-c2ccccc2)cc1)Nc1cc(C2CCC2)[nH]n1`: activity “inactive” (BTK; inhibitor; concentration not given).
The residence time of `C=CC(=O)N1CCC[C@@H]1Cn1nc(-c2ccc(Oc3ccccc3)cc2F)c2c(N)ncnc21` is reported as 1380 ± 180 min (BTK; Ramos).
For `C=CC(=O)N1CCC(C(=O)NCC(=O)N2CCN(c3nc(-c4cnc(N)nc4C(F)F)nc(N4CCOCC4)n3)CC2)CC1`, the remaining binding was 66% (BTK; KINOMEscan; 1 µM).
The remaining binding of `C=CC(=O)N1CCC(COCC(=O)N2CCN(c3nc(-c4cnc(N)nc4C(F)F)nc(N4CCOC[C@@H]4C)n3)CC2)CC1` is reported as 100% (BTK; KINOMEscan; 1 µM; relative to: DMSO control).
`C[C@@H](c1ccc(-n2cnc3c(N)ncnc32)cc1)N1CCc2nn(C)c(Cc3ccccc3)c2C1=O` has a remaining binding of 81% (BTK; KINOMEscan; 0.1 µM; relative to: DMSO).
Under “percent of control”, `C1=C/COCc2cc(ccc2OCCN2CCCC2)Nc2nccc(n2)-c2cccc(c2)COC/1` is recorded as 100% (BTK; concentration not given).
`COc1cc(F)ccc1-c1ncnc(Nc2cccc(C[S@](C)(=N)=O)c2)n1` has a remaining activity of 90% (BTK; kinase activity; 10 µM, added: 10 µM ATP).
With `COc1cc(-c2cncc3c2CN(C)Cc2cc(N4CCNCC4)ccc2-3)cc(OC)c1OC` the remaining activity was 107% (BTK; kinase activity; 1 µM, human enzyme, added: ATP 10 µM; relative to: DMSO control).
The labelling of `C=CC(=O)N1CCC(c2nc(C(=O)O)co2)CC1` is reported as 45% (UCHL1; covalent, intact protein LC-MS; 12.5 µM).
`CCCOc1ccc(OC)c(F)c1C(=O)c1ccc(C(=O)N[C@@H]2CNC[C@H]2NC(=O)c2ccc3[nH]ncc3c2)cc1` has a remaining activity of 78% (BTK; enzyme activity; 10 µM).
The remaining activity of `O=C1NC(=O)/C(=C/c2ccc(-c3ccc(F)cc3O)o2)S1` is reported as 45% (BTK; enzyme activity; 10 µM).
The residence time of `CC(C)(C)C=C(C#N)C(=O)N1CCC[C@@H](n2nc(-c3ccc(Oc4ccccc4)cc3)c3c(N)ncnc32)C1` is reported as greater than 12000 min (BTK; fluorescence competition; room temperature).
`CCN(CC)c1ccc(C2=NNC(=O)CC2C)cc1[N+](=O)[O-]` (stereo not drawn) gave a remaining activity of 127% (BTK; enzyme activity, inhibitor; 10 µM; relative to: vehicle).
`C#Cc1cccc(Oc2ccc(-c3nn([C@@H]4CCCN(C(=O)C=C)C4)c4ncnc(N)c34)cc2)c1` gave an SILAC ratio of 20 (BTK; ABPP-SILAC; 1 µM, 1 h; relative to: DMSO).
`C=CC(=O)Nc1cccc(Oc2nc(Nc3ccc(N4CCN(C)CC4)cc3)nc3ccoc23)c1` has a kinact/KI of 293000 M⁻¹ s⁻¹ (Tyrosine-protein kinase BTK, activated (BTK, Homo sapiens, UniProt Q06187)).

For quick reference, copied from above:
`O=C(Cc1ccc(-c2ccccc2)cc1)Nc1cc(C2CCC2)[nH]n1`: activity “inactive” (BTK; inhibitor; concentration not given).
For `C=CC(=O)N1CCC(C(=O)NCC(=O)N2CCN(c3nc(-c4cnc(N)nc4C(F)F)nc(N4CCOCC4)n3)CC2)CC1`, the remaining binding was 66% (BTK; KINOMEscan; 1 µM).
